Results from different studies.
A part holds a random share of what one study measured.
Sequence of UniProt P08588 (whole entry, looked up): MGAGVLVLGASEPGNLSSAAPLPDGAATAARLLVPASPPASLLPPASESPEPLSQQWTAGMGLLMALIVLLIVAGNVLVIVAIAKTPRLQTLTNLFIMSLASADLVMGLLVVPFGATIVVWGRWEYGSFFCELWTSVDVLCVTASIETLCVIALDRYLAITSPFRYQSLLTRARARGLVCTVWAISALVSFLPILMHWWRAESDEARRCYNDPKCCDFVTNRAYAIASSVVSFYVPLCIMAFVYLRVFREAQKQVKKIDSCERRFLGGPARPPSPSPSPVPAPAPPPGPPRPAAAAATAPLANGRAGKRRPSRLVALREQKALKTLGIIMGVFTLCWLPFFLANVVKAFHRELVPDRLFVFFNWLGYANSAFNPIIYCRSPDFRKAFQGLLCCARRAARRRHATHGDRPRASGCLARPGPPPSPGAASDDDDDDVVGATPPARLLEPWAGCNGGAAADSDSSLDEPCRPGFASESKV
Sequence of UniProt P08173 (whole entry, looked up): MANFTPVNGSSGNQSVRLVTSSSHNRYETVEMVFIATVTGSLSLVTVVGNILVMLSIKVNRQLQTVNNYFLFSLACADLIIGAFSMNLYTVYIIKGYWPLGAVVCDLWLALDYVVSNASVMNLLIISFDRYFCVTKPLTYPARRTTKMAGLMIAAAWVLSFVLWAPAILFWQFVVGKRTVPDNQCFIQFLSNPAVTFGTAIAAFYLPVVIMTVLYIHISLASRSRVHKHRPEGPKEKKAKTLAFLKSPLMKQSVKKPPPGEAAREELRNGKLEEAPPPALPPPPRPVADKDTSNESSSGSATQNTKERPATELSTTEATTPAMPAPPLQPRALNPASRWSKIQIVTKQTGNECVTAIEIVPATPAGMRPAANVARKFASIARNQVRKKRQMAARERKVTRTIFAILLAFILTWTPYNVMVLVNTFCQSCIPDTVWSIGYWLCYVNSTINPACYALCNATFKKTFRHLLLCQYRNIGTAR
Sequence of UniProt P08172 (whole entry, looked up): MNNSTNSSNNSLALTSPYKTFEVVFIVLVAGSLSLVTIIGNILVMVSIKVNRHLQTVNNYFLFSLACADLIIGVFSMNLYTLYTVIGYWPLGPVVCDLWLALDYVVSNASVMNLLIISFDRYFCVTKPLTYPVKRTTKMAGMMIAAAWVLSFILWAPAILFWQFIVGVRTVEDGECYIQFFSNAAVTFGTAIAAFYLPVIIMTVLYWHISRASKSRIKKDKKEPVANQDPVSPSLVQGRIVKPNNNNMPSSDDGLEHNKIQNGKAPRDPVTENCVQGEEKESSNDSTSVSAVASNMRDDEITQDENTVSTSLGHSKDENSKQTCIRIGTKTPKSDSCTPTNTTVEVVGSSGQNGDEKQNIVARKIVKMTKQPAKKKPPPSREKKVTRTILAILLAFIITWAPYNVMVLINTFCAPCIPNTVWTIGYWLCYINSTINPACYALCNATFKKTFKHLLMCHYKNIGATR
Sequence of UniProt P25021 (whole entry, looked up): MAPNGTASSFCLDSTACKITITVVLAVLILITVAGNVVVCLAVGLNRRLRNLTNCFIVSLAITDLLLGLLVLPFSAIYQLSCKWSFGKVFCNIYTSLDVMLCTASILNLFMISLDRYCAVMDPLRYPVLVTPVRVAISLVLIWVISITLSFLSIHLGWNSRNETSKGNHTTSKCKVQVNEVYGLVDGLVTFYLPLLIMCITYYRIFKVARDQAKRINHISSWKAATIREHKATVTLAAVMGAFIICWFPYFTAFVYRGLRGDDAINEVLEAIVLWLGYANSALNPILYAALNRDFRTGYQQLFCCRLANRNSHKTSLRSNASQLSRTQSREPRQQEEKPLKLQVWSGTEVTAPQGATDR
Sequence of UniProt P08912 (whole entry, looked up): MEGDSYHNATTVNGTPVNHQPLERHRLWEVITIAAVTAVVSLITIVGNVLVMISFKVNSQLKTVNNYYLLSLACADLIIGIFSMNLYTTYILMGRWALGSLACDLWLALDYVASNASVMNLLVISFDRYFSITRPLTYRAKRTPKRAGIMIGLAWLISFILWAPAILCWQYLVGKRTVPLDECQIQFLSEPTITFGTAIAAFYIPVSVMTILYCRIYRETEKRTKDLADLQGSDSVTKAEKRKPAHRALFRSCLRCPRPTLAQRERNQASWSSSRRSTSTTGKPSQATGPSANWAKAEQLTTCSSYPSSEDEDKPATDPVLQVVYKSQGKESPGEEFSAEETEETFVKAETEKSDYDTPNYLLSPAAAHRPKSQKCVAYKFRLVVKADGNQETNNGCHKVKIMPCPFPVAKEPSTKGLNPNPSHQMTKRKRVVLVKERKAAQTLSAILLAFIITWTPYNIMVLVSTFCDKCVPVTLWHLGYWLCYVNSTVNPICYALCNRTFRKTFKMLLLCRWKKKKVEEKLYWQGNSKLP
Sequence of UniProt P34969 (whole entry, looked up): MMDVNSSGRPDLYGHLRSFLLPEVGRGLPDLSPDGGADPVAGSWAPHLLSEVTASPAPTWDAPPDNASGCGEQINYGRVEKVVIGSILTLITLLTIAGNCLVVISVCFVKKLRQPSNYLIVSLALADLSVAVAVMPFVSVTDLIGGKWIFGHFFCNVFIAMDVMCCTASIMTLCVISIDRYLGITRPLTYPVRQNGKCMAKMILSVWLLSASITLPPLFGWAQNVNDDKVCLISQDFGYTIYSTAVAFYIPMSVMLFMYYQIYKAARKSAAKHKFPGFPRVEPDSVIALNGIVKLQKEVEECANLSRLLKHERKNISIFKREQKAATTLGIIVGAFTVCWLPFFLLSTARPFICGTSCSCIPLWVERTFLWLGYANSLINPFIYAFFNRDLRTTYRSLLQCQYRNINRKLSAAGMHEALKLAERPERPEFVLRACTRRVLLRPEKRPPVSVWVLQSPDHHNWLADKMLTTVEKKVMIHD
Sequence of UniProt Q99720 (whole entry, looked up): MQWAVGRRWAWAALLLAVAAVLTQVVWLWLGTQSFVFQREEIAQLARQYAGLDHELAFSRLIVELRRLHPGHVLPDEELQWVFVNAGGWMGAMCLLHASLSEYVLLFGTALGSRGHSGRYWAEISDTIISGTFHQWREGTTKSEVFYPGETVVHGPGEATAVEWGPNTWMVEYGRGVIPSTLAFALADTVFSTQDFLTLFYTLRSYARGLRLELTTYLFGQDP
Sequence of UniProt P13945 (whole entry, looked up): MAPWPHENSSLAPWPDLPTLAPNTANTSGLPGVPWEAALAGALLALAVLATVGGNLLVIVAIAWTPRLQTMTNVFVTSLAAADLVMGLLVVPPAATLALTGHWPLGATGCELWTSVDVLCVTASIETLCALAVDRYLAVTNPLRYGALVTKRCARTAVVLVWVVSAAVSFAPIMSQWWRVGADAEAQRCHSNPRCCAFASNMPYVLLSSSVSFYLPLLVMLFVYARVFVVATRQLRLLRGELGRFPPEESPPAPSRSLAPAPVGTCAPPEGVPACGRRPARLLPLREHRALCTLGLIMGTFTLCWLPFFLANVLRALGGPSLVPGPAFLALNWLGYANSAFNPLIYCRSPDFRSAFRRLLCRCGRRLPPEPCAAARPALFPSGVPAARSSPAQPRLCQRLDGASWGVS
Sequence of UniProt Q5BJF2 (whole entry, looked up): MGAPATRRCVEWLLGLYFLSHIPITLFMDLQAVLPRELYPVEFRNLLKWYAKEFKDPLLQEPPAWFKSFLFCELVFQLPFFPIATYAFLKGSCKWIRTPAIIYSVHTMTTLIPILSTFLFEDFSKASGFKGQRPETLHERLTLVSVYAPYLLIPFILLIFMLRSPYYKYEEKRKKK

Sample 1
Structure (SMILES): C=CCc1ccc(O)c(-c2cc(CC=C)ccc2O)c1
Target: Anoctamin-1 (ANO1, Homo sapiens, UniProt Q5XXA6, del476-501)
Sequence of UniProt Q5XXA6 (whole entry, unmodified, looked up): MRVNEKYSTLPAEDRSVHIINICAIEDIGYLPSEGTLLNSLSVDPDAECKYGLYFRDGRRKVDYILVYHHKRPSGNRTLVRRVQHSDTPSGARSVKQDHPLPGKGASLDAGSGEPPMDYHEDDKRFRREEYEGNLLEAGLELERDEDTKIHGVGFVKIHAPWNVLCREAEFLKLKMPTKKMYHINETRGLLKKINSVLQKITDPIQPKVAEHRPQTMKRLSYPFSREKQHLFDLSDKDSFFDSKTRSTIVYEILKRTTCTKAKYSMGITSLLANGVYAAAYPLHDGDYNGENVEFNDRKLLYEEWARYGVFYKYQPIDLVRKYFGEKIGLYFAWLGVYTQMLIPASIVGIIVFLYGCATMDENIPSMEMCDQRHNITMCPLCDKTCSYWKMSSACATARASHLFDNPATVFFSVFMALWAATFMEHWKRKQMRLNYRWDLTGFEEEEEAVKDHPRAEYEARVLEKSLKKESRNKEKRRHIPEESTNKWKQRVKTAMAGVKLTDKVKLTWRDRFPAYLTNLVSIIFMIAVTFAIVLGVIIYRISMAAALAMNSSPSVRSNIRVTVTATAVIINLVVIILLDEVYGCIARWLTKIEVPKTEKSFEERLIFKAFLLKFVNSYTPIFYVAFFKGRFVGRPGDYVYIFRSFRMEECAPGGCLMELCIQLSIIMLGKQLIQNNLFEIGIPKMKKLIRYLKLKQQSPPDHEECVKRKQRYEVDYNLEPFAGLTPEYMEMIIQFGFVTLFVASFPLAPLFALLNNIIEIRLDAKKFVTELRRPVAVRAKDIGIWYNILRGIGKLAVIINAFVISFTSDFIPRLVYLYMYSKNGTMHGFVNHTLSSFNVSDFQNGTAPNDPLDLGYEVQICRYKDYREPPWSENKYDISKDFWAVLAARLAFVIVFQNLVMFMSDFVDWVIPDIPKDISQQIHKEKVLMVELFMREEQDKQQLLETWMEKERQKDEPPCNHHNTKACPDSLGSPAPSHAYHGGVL
Observed: chloride current
Method: whole-cell patch clamp
tested at | setting | added | normalised current
3 µM | 20 mV, 300 nM free Ca2+ | – | 0.0745
30 µM | -80 mV, 300 nM free Ca2+ | – | -0.0439
30 µM | 80 mV, 300 nM free Ca2+ | honokiol and magnolol 3 µM | 0.179
10 µM | 20 mV, 300 nM free Ca2+ | – | 0.0555
10 µM | -20 mV, 300 nM free Ca2+ | honokiol and magnolol 3 µM | -0.0315
10 µM | -20 mV, 300 nM free Ca2+ | – | -0.0343
1 µM | -80 mV, 300 nM free Ca2+ | – | -0.0968

Sample 2
Organism: Sarcocystis neurona
Observed: parasite activity
Tested at: 10 µM
Time: 96 h
Compound | activity class
CC1(C)O[C@@H]2C[C@H]3[C@@H]4C[C@H](F)C5=CC(=O)C=C[C@]5(C)[C@H]4[C@@H](O)C[C@]3(C)[C@]2(C(=O)CO)O1 | inactive
CC[C@H]1OC(=O)[C@H](C)[C@@H](O[C@H]2C[C@@](C)(OC)[C@@H](O)[C@H](C)O2)[C@H](C)[C@@H](O[C@@H]2O[C@H](C)C[C@H](N(C)C)[C@H]2O)[C@](C)(O)C[C@@H](C)CN(C)[C@H](C)[C@@H](O)[C@]1(C)O | inactive
Cc1nc2n(c(=O)c1CCN1CCC(c3noc4cc(F)ccc34)CC1)CCCC2 | inactive
CN(C)CCOC(C)(c1ccccc1)c1ccccn1 (stereo not shown) | inactive
Cc1cccc(C)c1NC(=O)C1CCCCN1C (stereo not shown) | inactive
CC(=O)OCC(=O)[C@@]1(O)CC[C@H]2[C@@H]3C[C@H](C)C4=CC(=O)C=C[C@]4(C)[C@H]3[C@@H](O)C[C@@]21C | inactive

Sample 3
Host: human
Matrix: microsomes or S9
Tested at: 2 µM
Time: 0.5 h
Compound | remaining compound [%]
CN(Cc1cc(Br)cn1C)c1ncccn1 | > 100
Cc1nc2cc(NC(=O)c3cccc4cn[nH]c34)ccc2o1 | 29.3
O=C(c1scc2c1OCCO2)N1CCCC(Cn2ccnc2)C1 (stereo not shown) | 89.3
O=C(Cn1ncccc1=O)N1Cc2cnc(N3CCOCC3)nc2C1 | > 99
Cn1cc(C2NC(N)=Nc3nc4ccccc4n32)c2cc(F)ccc21 (stereo not shown) | > 99.9
O=C(O)c1nc2nc(C3CC3)cc(C(F)(F)F)n2n1 | 85.2

Sample 4
SMILES: CN(c1ccnc(CNc2nc(Nc3ccc4c(c3)CC(=O)N4)ncc2C(F)(F)F)n1)S(C)(=O)=O
Observed: cell-free assay
Tested at: 10 µM
target | inhibition [%]
HTR7 (Homo sapiens, UniProt P34969) | -4.55
HRH3 (Homo sapiens, UniProt Q9Y5N1) | 12.9
CHRM4 (Homo sapiens, UniProt P08173) | 8.94
CHRM2 (Homo sapiens, UniProt P08172) | -2.08
DRD1 (Homo sapiens, UniProt P21728) | 0.76
TMEM97 (Homo sapiens, UniProt Q5BJF2) | 60.3
HRH2 (Homo sapiens, UniProt P25021) | 1.75
ADRA1A (Homo sapiens, UniProt P35348) | -3.55
CHRM5 (Homo sapiens, UniProt P08912) | -6.47
ADRA1B (Homo sapiens, UniProt P35368) | 0.5
ADRB1 (Homo sapiens, UniProt P08588) | 16.4
SIGMAR1 (Homo sapiens, UniProt Q99720) | 23.1
HTR6 (Homo sapiens, UniProt P50406) | 11.1
ADRA2A (Homo sapiens, UniProt P08913) | 0.4
ADRB3 (Homo sapiens, UniProt P13945) | 1.64
DRD3 (Homo sapiens, UniProt P35462) | -11.8
DRD2 (Homo sapiens, UniProt P14416) | 9.12
ADRA1D (Homo sapiens, UniProt P25100) | 15.9

Some of these lines once more (sample 1):
tested at | setting | added | normalised current
30 µM | -80 mV, 300 nM free Ca2+ | – | -0.0439
10 µM | -20 mV, 300 nM free Ca2+ | honokiol and magnolol 3 µM | -0.0315
10 µM | -20 mV, 300 nM free Ca2+ | – | -0.0343
30 µM | 80 mV, 300 nM free Ca2+ | honokiol and magnolol 3 µM | 0.179
10 µM | 20 mV, 300 nM free Ca2+ | – | 0.0555
3 µM | 20 mV, 300 nM free Ca2+ | – | 0.0745
